Experimental data gathered from unrelated publications.
Compare with care: the assays were run in different laboratories. Numbers after ± are the reported error.
Chain of UniProt P07332 (whole entry, looked up): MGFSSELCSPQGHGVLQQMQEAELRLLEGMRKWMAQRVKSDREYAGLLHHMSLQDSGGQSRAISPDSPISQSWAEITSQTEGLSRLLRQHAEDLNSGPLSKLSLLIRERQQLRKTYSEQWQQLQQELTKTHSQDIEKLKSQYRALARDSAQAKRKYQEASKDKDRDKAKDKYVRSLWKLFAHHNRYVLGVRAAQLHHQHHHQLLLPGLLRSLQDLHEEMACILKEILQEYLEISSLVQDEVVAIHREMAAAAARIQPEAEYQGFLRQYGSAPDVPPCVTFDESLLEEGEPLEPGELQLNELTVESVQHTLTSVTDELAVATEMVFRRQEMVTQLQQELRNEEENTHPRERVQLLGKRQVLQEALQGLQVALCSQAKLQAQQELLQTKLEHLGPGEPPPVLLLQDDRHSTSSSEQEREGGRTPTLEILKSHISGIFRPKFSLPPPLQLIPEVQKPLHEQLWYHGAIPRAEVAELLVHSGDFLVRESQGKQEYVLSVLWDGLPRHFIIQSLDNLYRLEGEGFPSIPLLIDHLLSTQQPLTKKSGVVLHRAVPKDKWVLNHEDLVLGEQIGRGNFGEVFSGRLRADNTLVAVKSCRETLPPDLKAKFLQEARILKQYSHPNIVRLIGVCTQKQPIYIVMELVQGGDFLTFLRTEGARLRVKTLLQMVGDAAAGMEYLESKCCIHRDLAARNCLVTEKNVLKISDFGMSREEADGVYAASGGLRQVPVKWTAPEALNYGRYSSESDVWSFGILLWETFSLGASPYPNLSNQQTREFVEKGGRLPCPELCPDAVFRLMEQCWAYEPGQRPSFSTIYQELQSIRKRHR

COc1cccc(C2CC(c3ccccc3Cl)Nc3nc(N)nn32)c1 (stereo not shown) — EC50 (MEF TRE-FLAG-LMNB1; protein level reduction, refers to: LMNB1): 17.1 µM
CC(C)(C)c1cc(-c2ccc3cccnc3n2)nc(-c2ccc3cccnc3n2)c1.COc1ccncc1.[Cl-].[Cl-].[Ru+2].c1ccc2cc3nc4c5cccnc5c5ncccc5c4nc3cc2c1 — EC50 (SK-MEL-28; cell viability; light 633 nm, 100 J/cm2): 0.396 ± 0.017 µM
O=C(N/N=C/c1ccc(C[n+]2ccccc2)cc1)c1cncc(C(=O)N/N=C/c2ccc(C[n+]3ccccc3)cc2)n1 — ΔTm (22CTA telomeric G4-DNA antiparallel; FRET melting; 1 µM, K10 buffer, DNA 0.2 µM, with: ds26 10 µM): 11.8 ± 0.6 °C
CCCNc1ncc2c(/C=C/C(=O)N3CCC(OC)CC3)nn(Cc3cccc(C(F)(F)F)c3)c2n1 — EC50 (FLO-1; cell growth or viability, resazurin; 5 days): 3.36 µM
Nc1ncc(-c2cc(-c3cnn(CC(F)(F)F)c3)ncc2F)nc1C(=O)NC1CNCC(F)C1 (stereo not shown) — remaining binding (NIK; KINOMEscan competition binding; 1 µM; reference: DMSO control): 100%
C=CC(=O)Nc1cccc(Cn2ncc3cnc(Nc4cnn(CCOC)c4)nc32)c1 — percent of control (CHEK1 human; binding, KINOMEscan; 100 nM; lower = stronger binding): 100%
C=C(NC(=O)c1csc(-c2cccnc2)n1)C(=O)NC(=C)C(=O)OC — EC50 (Calu-1; cell growth or viability): 6.1 µM
CCCCCCCCCCCCNC(=S)NCCCC[C@H](NC(=O)OCc1ccccc1)C(=O)N[C@@H](Cc1c[nH]c2ccccc12)C(=O)NC(C)C — EC50 (HEK-293T; cell growth or viability, MTT; 72 h): 2.36 to 3.17 µM
O=c1c(-c2cnn(-c3ccccc3)c2)c(C(F)(F)F)oc2c(O)c(O)ccc12 — EC50 (NCI-H1299; apoptosis, flow cytometry): ~81 µM
Cc1nn(-c2cccc(N)c2)c(=O)c2cnc(Nc3ccc(N4CCNCC4)cc3)nc12 — IC50 (Tyrosine-protein kinase Fes/Fps (FES, Homo sapiens, UniProt P07332); enzyme activity, inhibitor): 1.76 µM
CCNc1ncc2c(/C=C/C(=O)N3CCC(OC)CC3)nn(Cc3cccc(C(F)(F)F)c3)c2n1 — EC50 (OE33; cell growth or viability, resazurin; 5 days): 0.93 µM
COC1CN([C@H]2CC[C@H]([C@@]3(C)Oc4c(Cl)cc(C(=O)NCc5c(SC)cc(C)[nH]c5=O)c(C)c4O3)CC2)C1 — log2 fold change (RNA-seq, refers to: PDGFRL mouse homolog; mouse, HT-1376 xenograft, whole blood; dose not given; reference: vehicle): 1.16
[Cl-].[Cl-].[Ru+2].c1ccc(-c2ccccn2)nc1.c1ccc(-c2ccccn2)nc1.c1ccc2cc3nc4c5cccnc5c5ncccc5c4nc3cc2c1 — EC50 (SK-MEL-28; cell viability, resazurin; dark, 1% O2 hypoxia): 115 ± 3 µM
CCCCNc1ncc2c(/C=C/C(=O)N3CCC(OC)CC3)nn(Cc3cccc(C(F)(F)F)c3)c2n1 — EC50 (OE33; cell growth or viability, resazurin; 5 days): > 30 µM
O=C(N/N=C/c1cc[n+](CC2CC2)c2ccccc12)c1ccc2ccc(C(=O)N/N=C/c3cc[n+](CC4CC4)c4ccccc34)nc2n1 — ΔTm (22CTA telomeric G4-DNA antiparallel; FRET melting; 1 µM, K10 buffer, DNA 0.2 µM, with: ds26 10 µM): 18.8 ± 0.3 °C
Cc1ccncc1.[Cl-].[Cl-].[Ru+2].c1cc(-c2ccc3cccnc3n2)nc(-c2ccc3cccnc3n2)c1.c1ccc2cc3nc4c5cccnc5c5ncccc5c4nc3cc2c1 — EC50 (SK-MEL-28; photocytotoxicity; light 633 nm, oxygen 1%): 67.1 ± 2.2 µM
CSCCC(C(=O)Nc1ccc2c(c1)OCCO2)N1Cc2ccccc2C1=O (stereo not shown) — EC50 (MEF TRE-FLAG-LMNB1; protein level reduction, refers to: LMNB1; resynthesized batch): 7.2 µM
COC1CCN(C(=O)/C=C/c2nn(Cc3cccc(C(F)(F)F)c3)c3nc(N4CCCCC4)ncc23)CC1 — EC50 (OE33; cell growth or viability, resazurin; 5 days): > 30 µM
COC(=O)[C@H](C)NC(=O)[C@H](C)NC(=O)c1csc(-c2cccnc2)n1 — EC50 (Calu-1; cell growth or viability): > 30 µM

Excerpt of the above:
[Cl-].[Cl-].[Ru+2].c1ccc(-c2ccccn2)nc1.c1ccc(-c2ccccn2)nc1.c1ccc2cc3nc4c5cccnc5c5ncccc5c4nc3cc2c1 — EC50 (SK-MEL-28; cell viability, resazurin; dark, 1% O2 hypoxia): 115 ± 3 µM
CC(C)(C)c1cc(-c2ccc3cccnc3n2)nc(-c2ccc3cccnc3n2)c1.COc1ccncc1.[Cl-].[Cl-].[Ru+2].c1ccc2cc3nc4c5cccnc5c5ncccc5c4nc3cc2c1 — EC50 (SK-MEL-28; cell viability; light 633 nm, 100 J/cm2): 0.396 ± 0.017 µM
O=C(N/N=C/c1cc[n+](CC2CC2)c2ccccc12)c1ccc2ccc(C(=O)N/N=C/c3cc[n+](CC4CC4)c4ccccc34)nc2n1 — ΔTm (22CTA telomeric G4-DNA antiparallel; FRET melting; 1 µM, K10 buffer, DNA 0.2 µM, with: ds26 10 µM): 18.8 ± 0.3 °C
